Measurements of several laboratories.
Parts stem from different laboratories: compare values within a part only. Positions count from the first letter of the parent shown.

Block 1 — technique: RNA Bind-n-Seq; molecule type: RNA; matrix: in vitro; tested at: not given; relative to: input RNA pool; direction: higher = stronger binding; endpoint: bound/input enrichment
Target: RING finger protein unkempt homolog, zinc fingers 1-6, GST-SBP tag (UNK, Homo sapiens, UniProt Q9C0B0, residues 30-357)
Setting: RNA with constant flanks, human and mouse sites, ends assumed
All sequences stand within: GGGAGUUCUACAGUCCGACGAUC … CAACAGAGGAUUGAGCAUCA
Construct (chain): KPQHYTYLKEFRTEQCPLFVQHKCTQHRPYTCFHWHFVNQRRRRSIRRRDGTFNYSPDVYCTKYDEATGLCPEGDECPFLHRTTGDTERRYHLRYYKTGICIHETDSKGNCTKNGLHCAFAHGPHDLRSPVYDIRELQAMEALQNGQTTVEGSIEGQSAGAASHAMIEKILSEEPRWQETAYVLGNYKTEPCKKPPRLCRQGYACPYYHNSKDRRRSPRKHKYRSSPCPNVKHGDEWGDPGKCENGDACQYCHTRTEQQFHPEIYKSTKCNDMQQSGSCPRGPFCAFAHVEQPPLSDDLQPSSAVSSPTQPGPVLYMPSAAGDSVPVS
Oligonucleotide = GCUUGUUUUACUGAAGGAUGUAUUAAAAAGUUUCCAUUCUGUCAAGUAAGUACAGAAGAAGGCAAAGGGAAGAUCUGGUGGAAUCUUCGAAAAACCUGCUACAGUAUUGUUGAGCACAAC; value = 0.481 ratio
Oligonucleotide = UGGUGAGGGCCCCAAAGCCCAUAUCCGGAAGCUAGCUGAGUGCAUCCGCUGGUCCUAUGGAGCAGGCGUCGUCCUCCGACUUGGCAACAUCGCUCGGCUGGAGCUGAACUACUGCAUUCC; value = 0.0409 ratio
Oligonucleotide = GGCACCAUCCAAGUGACCUUAUUUAACCCCAACCAGACUGUGGUGAAGAUGUUCCUUGUGACCUUUGACUUCUCGGACAUGCCUGCUGCCCACAUGACCUUCCUGCGCCAUCGCCUCUUC; value = 0.297 ratio
Oligonucleotide = CGCUUCACCUCUAUGACACGAUUGUAUUAUCGGGAUGCCUCUGCCUGUGUUAUUAUGUUUGACGUUACCAAUGCCACUACCUUCAGCAACAGCCAGAGGUGGAAACAGGACCUAGACAGC; value = 0.227 ratio
Oligonucleotide = GGGCAGGCUACUUUUUGGAGCAUCUGGCUUUCAAGGGAACAAAGAAUCGGCCUGGCAGUGCCCUGGAGAAGGAGGUGGAGAGCAUGGGGGCCCAUCUUAAUGCCUACAGCACCCGGGAGC; value = 0.2 ratio
Oligonucleotide = ACCCACACUGAUGAGGACCCCCAGAUGUCAAUGGUUGAAGACUGUCAUGCUUCAGAGCAUAAUAGCCCGAUAUCCUCCAUUCCGUCUCAUCCUAGCCAGUCAGUCCGCUCUGUCAACAGC; value = 0.237 ratio
Oligonucleotide = GGUCAGGCUAAUAAGCCUGAUGAAACUAGUAAAACUAGUAUUCUGGCUGUAUCAGAUGUAUCUAGCAGUAAACCAAGCAUCAAGGCUGUUAUAGUCUCUUCUCCUAAGGCAAAAGCUACA; value = 0.299 ratio

Block 2 — technique: RNA Bind-n-Seq; molecule type: RNA; matrix: in vitro; tested at: 20 nM; setting: 6-mer, flanks averaged, single round; together with: 150 mM LiCl; relative to: input library; direction: higher = stronger binding; endpoint: 6-mer enrichment (R)
Target: TAR DNA-binding protein 43, full length, His tag (TARDBP, Homo sapiens, UniProt Q13148, residues 1-414)
Oligonucleotide = AAUGUA; value = 1.03
Oligonucleotide = UUCGGC; value = 0.922
Oligonucleotide = GUAAUU; value = 0.99
Oligonucleotide = UUGAGU; value = 1.22
Oligonucleotide = UGGUUU; value = 1.27

Block 3 — target: CCNB2, cyclin fold, Cln2 fusion (human); technique: yeast growth competition, sequencing; matrix: yeast; setting: weak parent motif; relative to: not given; direction: higher = stronger binding; endpoint: normalised enrichment score
Parent: CDC6 docking peptide (human); TLKGRRLVFDNQL
Change = TLKGRRLTFDNQL [V8T]; value = 0.28
Change = TLKGRRLVSDNQL [F9S]; value = 0.214
Change = TLVGRRLVFDNQL [K3V]; value = 0.629
Change = TLKGRRLVFDNQN [L13N]; value = 0.104
Change = TKKGRRLVFDNQL [L2K]; value = 0.278
Change = TLKGRRLVFDYQL [N11Y]; value = 0.238

Other studies, line by line
Substance = PhoQ, residues 284 288 289 292 302 303 AGHLVA; target = PhoP, residues 12 14 15 18 19 NIMAP (Escherichia coli, UniProt P23836); test = Sort-seq, measured: YFP reporter; system = E. coli; setting = PhoQ-PhoP variant library, together with: 10 µM Mg2+; how to read = relative to: high Mg2+ state, higher = stronger signaling; endpoint = fold induction; value = 1.26

Excerpt of the above (block 2):
Oligonucleotide = GUAAUU; value = 0.99
Oligonucleotide = UUGAGU; value = 1.22
Oligonucleotide = UGGUUU; value = 1.27
